# Measurements from different studies.
# Parts stem from different laboratories: compare values within a part only.
# Chain of UniProt P05771 (whole entry, looked up): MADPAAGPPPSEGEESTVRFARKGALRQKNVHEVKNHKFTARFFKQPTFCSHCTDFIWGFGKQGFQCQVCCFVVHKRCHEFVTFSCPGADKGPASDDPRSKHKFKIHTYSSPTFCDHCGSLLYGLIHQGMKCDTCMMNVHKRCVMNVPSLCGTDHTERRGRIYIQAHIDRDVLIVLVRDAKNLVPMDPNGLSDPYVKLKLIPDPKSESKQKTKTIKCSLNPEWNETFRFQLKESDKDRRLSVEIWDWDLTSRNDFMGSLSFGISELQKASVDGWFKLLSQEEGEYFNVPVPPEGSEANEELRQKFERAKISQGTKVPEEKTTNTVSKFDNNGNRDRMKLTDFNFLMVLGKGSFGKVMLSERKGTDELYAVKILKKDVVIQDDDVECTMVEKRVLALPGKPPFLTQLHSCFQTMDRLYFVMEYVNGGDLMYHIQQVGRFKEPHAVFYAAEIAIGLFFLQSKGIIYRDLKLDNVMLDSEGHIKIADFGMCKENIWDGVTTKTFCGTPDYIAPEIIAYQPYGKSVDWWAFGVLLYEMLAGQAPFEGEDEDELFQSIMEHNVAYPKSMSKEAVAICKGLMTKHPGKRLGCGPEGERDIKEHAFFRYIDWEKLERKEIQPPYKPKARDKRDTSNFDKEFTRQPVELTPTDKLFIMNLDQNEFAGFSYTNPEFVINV
# Chain of UniProt Q99759 (whole entry, looked up): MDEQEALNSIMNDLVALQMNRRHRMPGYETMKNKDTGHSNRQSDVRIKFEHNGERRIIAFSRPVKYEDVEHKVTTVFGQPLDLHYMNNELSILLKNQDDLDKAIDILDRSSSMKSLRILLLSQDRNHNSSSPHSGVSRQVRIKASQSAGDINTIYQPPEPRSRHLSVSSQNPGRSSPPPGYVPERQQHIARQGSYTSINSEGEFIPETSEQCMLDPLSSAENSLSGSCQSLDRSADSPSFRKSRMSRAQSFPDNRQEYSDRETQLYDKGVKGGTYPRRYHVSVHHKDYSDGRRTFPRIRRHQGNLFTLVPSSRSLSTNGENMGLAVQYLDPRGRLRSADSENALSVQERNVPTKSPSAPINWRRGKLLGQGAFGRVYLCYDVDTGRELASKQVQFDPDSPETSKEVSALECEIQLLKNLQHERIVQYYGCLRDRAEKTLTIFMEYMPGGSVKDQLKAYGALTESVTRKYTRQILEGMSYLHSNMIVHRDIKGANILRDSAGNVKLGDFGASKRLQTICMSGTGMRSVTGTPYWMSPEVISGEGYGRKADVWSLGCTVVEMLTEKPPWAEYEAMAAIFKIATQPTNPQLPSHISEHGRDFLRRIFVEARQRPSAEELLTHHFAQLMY
# Chain of UniProt Q9XFM0 (whole entry, looked up): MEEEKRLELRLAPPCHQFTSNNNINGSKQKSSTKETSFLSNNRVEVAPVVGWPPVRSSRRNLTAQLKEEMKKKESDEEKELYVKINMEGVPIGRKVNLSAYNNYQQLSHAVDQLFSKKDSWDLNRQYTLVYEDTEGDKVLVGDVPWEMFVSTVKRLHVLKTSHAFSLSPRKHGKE
# Chain of UniProt Q38827 (whole entry, looked up): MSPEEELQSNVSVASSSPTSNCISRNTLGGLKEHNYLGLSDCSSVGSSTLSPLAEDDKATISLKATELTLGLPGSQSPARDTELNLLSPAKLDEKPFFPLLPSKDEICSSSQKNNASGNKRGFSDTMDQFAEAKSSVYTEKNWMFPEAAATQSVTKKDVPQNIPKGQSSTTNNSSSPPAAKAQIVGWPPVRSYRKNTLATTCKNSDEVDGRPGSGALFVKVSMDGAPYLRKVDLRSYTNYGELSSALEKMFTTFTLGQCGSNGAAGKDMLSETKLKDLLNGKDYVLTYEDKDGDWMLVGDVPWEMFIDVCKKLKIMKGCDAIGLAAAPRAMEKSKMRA
# Chain of UniProt P35626 (whole entry, looked up): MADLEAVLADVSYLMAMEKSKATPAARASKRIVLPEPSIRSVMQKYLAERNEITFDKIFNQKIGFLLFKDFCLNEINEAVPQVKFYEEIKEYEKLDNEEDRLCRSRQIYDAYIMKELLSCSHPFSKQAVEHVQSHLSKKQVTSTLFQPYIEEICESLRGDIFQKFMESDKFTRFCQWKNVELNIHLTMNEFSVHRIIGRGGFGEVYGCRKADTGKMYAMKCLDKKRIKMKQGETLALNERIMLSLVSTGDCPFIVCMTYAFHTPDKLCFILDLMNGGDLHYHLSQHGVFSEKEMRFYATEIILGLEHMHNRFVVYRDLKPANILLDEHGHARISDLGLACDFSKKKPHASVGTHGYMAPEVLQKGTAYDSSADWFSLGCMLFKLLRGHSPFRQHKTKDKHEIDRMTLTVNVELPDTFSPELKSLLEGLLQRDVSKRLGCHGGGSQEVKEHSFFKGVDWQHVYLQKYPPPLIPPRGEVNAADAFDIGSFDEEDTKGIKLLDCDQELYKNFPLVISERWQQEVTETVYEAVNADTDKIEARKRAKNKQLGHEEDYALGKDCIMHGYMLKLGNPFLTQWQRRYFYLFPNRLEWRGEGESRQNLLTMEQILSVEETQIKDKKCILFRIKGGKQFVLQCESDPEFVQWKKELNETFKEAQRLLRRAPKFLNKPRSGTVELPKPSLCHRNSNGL
# Chain of UniProt P54753 (whole entry, looked up): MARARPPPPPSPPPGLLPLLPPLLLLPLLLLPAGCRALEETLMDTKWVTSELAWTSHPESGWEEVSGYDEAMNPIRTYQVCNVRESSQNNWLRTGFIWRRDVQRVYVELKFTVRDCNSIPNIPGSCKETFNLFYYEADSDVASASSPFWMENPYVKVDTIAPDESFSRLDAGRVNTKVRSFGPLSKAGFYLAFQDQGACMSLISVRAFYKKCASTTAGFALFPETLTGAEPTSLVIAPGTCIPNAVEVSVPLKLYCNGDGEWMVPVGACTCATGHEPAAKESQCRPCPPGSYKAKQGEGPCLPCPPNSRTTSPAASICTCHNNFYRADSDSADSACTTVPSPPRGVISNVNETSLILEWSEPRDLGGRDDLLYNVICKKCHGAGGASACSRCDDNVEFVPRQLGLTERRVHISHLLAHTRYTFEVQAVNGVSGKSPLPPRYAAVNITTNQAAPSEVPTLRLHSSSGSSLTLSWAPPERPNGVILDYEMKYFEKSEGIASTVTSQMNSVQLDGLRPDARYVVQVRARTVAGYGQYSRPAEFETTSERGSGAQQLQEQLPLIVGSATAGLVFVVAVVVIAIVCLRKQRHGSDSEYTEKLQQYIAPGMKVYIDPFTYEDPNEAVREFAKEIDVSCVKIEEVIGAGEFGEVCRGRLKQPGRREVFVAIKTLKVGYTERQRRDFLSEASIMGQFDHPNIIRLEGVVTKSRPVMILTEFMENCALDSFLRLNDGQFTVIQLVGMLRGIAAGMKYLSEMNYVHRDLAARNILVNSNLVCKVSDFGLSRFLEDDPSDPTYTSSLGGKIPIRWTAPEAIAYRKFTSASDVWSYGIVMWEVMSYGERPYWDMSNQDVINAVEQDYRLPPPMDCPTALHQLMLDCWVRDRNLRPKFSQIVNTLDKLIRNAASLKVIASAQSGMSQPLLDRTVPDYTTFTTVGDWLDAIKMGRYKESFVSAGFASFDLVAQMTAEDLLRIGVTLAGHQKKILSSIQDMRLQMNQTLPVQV
# Chain of UniProt Q8RYC8 (whole entry, looked up): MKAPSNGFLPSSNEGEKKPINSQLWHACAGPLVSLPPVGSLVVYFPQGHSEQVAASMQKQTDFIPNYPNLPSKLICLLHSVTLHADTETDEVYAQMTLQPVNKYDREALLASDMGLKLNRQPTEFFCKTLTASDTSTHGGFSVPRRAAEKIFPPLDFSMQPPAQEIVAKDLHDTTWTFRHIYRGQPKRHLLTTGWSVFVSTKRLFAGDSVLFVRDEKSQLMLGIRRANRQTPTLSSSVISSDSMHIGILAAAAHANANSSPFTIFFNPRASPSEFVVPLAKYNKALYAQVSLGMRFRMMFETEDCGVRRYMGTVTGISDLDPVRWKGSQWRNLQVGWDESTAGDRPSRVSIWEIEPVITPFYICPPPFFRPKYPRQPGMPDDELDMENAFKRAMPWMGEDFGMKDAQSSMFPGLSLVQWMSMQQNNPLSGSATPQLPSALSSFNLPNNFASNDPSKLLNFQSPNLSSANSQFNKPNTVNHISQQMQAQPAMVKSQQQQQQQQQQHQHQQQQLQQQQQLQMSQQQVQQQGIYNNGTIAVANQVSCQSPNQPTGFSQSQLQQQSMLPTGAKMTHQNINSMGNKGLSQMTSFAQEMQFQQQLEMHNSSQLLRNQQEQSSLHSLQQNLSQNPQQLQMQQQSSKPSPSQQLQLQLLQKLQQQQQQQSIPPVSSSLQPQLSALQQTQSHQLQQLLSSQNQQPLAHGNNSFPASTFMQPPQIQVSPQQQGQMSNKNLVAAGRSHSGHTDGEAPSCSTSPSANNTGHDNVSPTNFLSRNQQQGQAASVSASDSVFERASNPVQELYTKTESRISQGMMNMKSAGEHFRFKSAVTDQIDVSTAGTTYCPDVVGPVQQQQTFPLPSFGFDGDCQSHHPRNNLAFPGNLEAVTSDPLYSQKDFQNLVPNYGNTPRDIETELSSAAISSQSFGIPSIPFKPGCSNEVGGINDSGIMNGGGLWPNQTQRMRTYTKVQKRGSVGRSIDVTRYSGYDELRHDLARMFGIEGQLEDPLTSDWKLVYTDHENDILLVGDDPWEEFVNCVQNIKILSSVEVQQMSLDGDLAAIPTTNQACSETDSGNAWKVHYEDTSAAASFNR
# Chain of UniProt P51955 (whole entry, looked up): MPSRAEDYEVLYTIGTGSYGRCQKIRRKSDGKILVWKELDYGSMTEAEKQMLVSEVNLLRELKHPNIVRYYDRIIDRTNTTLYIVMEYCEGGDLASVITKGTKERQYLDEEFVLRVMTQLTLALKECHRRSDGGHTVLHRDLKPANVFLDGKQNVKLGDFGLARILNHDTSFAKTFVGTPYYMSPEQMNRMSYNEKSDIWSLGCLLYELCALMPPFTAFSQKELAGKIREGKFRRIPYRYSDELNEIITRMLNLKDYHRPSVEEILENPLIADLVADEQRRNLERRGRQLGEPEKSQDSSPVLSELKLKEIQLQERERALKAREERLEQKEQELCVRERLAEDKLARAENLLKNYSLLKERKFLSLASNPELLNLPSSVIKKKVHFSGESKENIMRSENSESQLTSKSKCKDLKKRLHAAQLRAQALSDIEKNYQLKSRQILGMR

# Series 1 — technique: aptamer microarray, sandwich; molecule type: DNA with 2'F-ANA; medium: in vitro; tested at: 200 nM; added: Cy3 exosite-II aptamer, 400 nM; reading: higher = stronger binding; oligonucleotide: GGTTGGTGTGGTTGG
# Target: Prothrombin, mature alpha-thrombin (F2, Homo sapiens, UniProt P00734)
# Notes: whole 15-mer aptamer, many near background
Modification,mean fluorescence intensity [a.u.]
2'F-ANA at 2 7 8 12 13 15,723
2'F-ANA at 1 2 3 4 5 6 9 15,80.7
2'F-ANA at 1 3 6 7 11 12 13 15,351
2'F-ANA at 1 2 5 6 12,107
2'F-ANA at 1 3 5 7 8 9 10 14 15,49.1
2'F-ANA at 3 4 6 10 12 15,290
2'F-ANA at 1 2 5 7 9 10 12 13 14,49.5
2'F-ANA at 1 5 6 9 12 14,46.3

# Series 2 — Sequence: B1 (IAA6); technique: two-hybrid; relative to: out of 4 tests; reading: higher = firmer interaction
# B1: IAA6 (Arabidopsis thaliana, UniProt Q38824); chain MAKEGLALEITELRLGLPGDNYSEISVCGSSKKKKRVLSDMMTSSALDTENENSVVSSVEDESLPVVKSQAVGWPPVCSYRRKKNNEEASKAIGYVKVSMDGVPYMRKIDLGSSNSYINLVTVLENLFGCLGIGVAKEGKKCEYIIIYEDKDRDWMLVGDVPWQMFKESCKRLRIVKRSDATGFGLQQD
partner,positive tests
"IAA28 (Arabidopsis thaliana, UniProt Q9XFM0)",0
"ARF8 699-811 (Arabidopsis thaliana, UniProt Q9FGV1)",1
"ARF19 948-1086 (Arabidopsis thaliana, UniProt Q8RYC8)",0
"ARF11 500-622 (Arabidopsis thaliana, UniProt Q9ZPY6)",0
"IAA32 (Arabidopsis thaliana, UniProt Q8RYC6)",0
"IAA33 (Arabidopsis thaliana, UniProt Q9FKM7)",1
"IAA9 (Arabidopsis thaliana, UniProt Q38827)",1
"IAA14 (Arabidopsis thaliana, UniProt Q38832)",0

# Series 3 — effect on: enzyme activity; mode: inhibitor; tested at: 0.5 µM; relative to: control
# SMILES: CN([C@@H](Cc1ccc(OS(=O)(=O)c2cccc3cnccc23)cc1)C(=O)N1CCN(c2ccccc2)CC1)S(=O)(=O)c1cccc2cnccc12
target,remaining activity [%]
"Tyrosine-protein kinase Lyn, isoform B (LYN, Homo sapiens, UniProt P07948)",92.1
"Cyclin-dependent kinase 5, with p25 (CDK5, Homo sapiens, UniProt Q00535)",93.5
"PRKCA (Homo sapiens, UniProt P17252)",105
"TGFBR2 (Homo sapiens, UniProt P37173)",101
"Protein kinase C beta type, isoform beta-I (PRKCB, Homo sapiens, UniProt P05771)",95.9
"MAP3K3 (Homo sapiens, UniProt Q99759)",96.4
"CAMKK2 (Homo sapiens, UniProt Q96RR4)",84.2
"CAMK2D (Homo sapiens, UniProt Q13557)",92.8
"MAPK9 (Homo sapiens, UniProt P45984)",85.6
"OXSR1 (Homo sapiens, UniProt O95747)",101
"DAPK2 (Homo sapiens, UniProt Q9UIK4)",99.7
"IKBKB (Homo sapiens, UniProt O14920)",96.7
"STK10 (Homo sapiens, UniProt O94804)",96.3
"DAPK1 (Homo sapiens, UniProt P53355)",117
"GRK3 (Homo sapiens, UniProt P35626)",113
"IKBKE (Homo sapiens, UniProt Q14164)",92.7
"NEK2 (Homo sapiens, UniProt P51955)",87.4
"CHEK2 (Homo sapiens, UniProt O96017)",101
"Cyclin-dependent kinase 4, with cyclin D1 (CDK4, Homo sapiens, UniProt P11802)",95.3

# Series 4 — Compound: FC(F)(F)c1ccc2c(c1)nc(-c1cccnc1)n2C1CC1; effect on: cell-free assay; technique: competition with immobilised ligand; tested at: 1 µM
target,remaining binding [%]
"FES (Homo sapiens, UniProt P07332)",100
"STK35 (Homo sapiens, UniProt Q8TDR2)",100
"EPHB3 (Homo sapiens, UniProt P54753)",100
"MAPK4 (Homo sapiens, UniProt P31152)",100
"ANKK1 (Homo sapiens, UniProt Q8NFD2)",100
"Tyrosine-protein kinase ABL1, non-phosphorylated (ABL1, Homo sapiens, UniProt P00519, T315I)",100
"LATS1 (Homo sapiens, UniProt O95835)",86
"TYRO3 (Homo sapiens, UniProt Q06418)",100
"SRPK3 (Homo sapiens, UniProt Q9UPE1)",100
"MAPK3 (Homo sapiens, UniProt P27361)",100
"BRAF (Homo sapiens, UniProt P15056, V600E)",100
"LIM domain kinase 1 (LIMK1, Homo sapiens, UniProt P53667)",100
"EPHA2 (Homo sapiens, UniProt P29317)",100

# A few entries again (series 3):
target,remaining activity [%]
"Cyclin-dependent kinase 5, with p25 (CDK5, Homo sapiens, UniProt Q00535)",93.5
"PRKCA (Homo sapiens, UniProt P17252)",105
"TGFBR2 (Homo sapiens, UniProt P37173)",101
"Protein kinase C beta type, isoform beta-I (PRKCB, Homo sapiens, UniProt P05771)",95.9
"MAP3K3 (Homo sapiens, UniProt Q99759)",96.4
"CAMKK2 (Homo sapiens, UniProt Q96RR4)",84.2
"CAMK2D (Homo sapiens, UniProt Q13557)",92.8
